Measurements from different studies.
Lines come from different studies, so protocols differ. ± gives the spread as reported.
ESR1: Estrogen receptor (ESR1, Homo sapiens, UniProt P03372)

Protein sequences, listed by entry. Tags and fused reporters are not part of them. Lines headed by an entry give the natural chain unless they say otherwise; changes in a name come on top. Residues count along the entry.
UniProt Q8IXJ6, whole entry, looked up: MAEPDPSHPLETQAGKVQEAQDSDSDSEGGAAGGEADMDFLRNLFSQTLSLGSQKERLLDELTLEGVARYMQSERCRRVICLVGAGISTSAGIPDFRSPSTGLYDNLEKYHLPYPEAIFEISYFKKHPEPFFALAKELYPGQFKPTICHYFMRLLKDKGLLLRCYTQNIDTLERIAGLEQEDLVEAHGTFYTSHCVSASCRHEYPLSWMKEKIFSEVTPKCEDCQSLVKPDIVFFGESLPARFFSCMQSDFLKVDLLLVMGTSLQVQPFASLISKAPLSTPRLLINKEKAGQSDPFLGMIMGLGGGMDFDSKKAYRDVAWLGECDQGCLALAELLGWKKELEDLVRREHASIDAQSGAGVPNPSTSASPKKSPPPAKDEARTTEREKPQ
UniProt P31421, 19-872 limits assumed: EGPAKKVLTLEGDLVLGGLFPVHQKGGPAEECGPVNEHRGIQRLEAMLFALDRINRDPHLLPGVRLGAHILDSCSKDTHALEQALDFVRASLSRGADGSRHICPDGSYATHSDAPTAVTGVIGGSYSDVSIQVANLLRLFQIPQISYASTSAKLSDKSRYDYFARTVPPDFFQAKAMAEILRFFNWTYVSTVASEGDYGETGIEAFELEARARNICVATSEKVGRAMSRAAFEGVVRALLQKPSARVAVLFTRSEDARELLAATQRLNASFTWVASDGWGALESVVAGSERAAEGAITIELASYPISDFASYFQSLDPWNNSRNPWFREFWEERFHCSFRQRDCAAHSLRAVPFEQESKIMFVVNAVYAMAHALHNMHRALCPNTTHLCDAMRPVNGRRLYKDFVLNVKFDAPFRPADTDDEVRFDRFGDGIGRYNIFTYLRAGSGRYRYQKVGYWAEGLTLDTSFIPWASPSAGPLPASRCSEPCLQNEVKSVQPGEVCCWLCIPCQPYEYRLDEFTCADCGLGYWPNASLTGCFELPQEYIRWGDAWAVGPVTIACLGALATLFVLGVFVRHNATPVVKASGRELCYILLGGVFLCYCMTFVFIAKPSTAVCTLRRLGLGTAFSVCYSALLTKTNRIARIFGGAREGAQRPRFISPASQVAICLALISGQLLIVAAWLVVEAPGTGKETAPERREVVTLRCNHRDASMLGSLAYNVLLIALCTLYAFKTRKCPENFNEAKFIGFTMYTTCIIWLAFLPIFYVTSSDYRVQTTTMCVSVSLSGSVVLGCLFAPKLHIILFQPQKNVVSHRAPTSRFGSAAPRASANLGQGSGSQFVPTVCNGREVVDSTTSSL
UniProt Q13304, whole entry: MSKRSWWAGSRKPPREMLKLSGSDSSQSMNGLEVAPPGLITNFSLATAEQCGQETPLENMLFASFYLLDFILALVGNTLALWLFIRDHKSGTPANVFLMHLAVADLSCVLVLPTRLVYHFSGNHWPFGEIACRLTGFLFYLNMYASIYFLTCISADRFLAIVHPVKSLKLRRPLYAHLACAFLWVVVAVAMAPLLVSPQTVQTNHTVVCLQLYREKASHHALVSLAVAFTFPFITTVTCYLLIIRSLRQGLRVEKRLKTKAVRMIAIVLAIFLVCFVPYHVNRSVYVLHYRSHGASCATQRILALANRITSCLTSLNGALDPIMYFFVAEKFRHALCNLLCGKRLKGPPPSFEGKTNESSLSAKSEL
UniProt P50750, whole entry: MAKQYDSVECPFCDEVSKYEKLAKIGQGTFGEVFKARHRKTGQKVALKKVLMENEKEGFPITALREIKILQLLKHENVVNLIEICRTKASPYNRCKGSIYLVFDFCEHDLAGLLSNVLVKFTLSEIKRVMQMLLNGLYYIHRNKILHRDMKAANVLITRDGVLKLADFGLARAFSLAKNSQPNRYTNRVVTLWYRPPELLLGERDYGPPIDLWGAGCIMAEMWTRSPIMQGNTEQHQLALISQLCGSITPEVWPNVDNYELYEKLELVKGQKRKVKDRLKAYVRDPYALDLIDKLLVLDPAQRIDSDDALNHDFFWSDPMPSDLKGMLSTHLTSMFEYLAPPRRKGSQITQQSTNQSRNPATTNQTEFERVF
UniProt Q6P5Z2, whole entry: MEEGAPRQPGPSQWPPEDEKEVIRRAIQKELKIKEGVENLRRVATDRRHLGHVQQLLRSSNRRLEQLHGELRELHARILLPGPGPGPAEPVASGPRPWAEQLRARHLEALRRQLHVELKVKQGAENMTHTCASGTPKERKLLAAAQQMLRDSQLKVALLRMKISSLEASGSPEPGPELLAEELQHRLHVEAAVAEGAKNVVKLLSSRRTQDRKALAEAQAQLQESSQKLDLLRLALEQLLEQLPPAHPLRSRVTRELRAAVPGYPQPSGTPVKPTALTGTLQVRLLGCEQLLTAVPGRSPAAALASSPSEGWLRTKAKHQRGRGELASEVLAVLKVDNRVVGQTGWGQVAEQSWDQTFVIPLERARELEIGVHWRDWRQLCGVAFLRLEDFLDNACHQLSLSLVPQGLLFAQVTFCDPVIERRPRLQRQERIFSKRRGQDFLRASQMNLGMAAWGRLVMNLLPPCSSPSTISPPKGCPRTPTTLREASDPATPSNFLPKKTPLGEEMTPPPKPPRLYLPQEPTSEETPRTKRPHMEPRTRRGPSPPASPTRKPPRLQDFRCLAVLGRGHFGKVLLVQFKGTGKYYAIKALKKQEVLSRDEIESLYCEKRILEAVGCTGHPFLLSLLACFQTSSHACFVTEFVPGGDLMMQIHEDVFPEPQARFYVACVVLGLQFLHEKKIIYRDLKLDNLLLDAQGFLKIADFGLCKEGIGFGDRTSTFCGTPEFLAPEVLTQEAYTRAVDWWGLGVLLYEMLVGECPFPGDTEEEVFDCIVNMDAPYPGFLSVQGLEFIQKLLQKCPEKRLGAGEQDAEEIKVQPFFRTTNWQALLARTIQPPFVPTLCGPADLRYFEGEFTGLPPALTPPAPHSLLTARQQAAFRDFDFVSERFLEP
UniProt P22455, 22-802 limits assumed: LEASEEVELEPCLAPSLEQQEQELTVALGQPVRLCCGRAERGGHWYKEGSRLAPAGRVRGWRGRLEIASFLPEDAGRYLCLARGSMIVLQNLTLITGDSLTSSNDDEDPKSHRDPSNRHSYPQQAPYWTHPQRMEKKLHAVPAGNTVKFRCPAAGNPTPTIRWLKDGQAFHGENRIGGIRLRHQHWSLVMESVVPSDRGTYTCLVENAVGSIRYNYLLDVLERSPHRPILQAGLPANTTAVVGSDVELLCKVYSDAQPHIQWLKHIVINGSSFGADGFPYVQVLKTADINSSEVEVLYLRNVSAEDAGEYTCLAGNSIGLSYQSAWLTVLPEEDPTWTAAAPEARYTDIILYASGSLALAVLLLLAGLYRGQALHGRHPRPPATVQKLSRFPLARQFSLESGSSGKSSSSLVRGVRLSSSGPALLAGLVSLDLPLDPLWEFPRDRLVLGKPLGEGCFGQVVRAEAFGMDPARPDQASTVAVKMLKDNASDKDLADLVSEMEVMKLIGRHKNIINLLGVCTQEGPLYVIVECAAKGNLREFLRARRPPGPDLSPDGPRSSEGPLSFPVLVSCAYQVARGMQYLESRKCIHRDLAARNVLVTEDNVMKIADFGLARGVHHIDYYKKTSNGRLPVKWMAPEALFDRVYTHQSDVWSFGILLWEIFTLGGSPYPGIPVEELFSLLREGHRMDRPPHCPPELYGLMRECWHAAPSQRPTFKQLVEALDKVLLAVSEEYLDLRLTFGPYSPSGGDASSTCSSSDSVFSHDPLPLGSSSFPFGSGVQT
UniProt P46116, whole entry: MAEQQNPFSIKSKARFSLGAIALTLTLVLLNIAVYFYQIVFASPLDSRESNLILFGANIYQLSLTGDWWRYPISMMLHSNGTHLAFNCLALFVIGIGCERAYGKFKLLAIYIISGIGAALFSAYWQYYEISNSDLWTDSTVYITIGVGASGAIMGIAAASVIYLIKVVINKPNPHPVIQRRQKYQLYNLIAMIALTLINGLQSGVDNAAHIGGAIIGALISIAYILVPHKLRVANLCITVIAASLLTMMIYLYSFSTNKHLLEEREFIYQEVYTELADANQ
UniProt Q9NXA8, whole entry, looked up: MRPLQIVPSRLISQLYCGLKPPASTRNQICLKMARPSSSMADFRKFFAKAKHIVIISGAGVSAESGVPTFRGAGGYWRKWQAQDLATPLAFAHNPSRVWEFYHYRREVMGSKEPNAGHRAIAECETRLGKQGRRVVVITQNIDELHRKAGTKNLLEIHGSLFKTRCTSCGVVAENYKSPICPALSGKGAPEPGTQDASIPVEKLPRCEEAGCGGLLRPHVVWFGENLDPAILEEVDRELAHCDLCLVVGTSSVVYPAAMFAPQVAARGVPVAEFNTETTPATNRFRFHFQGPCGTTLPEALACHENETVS
UniProt P07949, whole entry, looked up, stated change not applied: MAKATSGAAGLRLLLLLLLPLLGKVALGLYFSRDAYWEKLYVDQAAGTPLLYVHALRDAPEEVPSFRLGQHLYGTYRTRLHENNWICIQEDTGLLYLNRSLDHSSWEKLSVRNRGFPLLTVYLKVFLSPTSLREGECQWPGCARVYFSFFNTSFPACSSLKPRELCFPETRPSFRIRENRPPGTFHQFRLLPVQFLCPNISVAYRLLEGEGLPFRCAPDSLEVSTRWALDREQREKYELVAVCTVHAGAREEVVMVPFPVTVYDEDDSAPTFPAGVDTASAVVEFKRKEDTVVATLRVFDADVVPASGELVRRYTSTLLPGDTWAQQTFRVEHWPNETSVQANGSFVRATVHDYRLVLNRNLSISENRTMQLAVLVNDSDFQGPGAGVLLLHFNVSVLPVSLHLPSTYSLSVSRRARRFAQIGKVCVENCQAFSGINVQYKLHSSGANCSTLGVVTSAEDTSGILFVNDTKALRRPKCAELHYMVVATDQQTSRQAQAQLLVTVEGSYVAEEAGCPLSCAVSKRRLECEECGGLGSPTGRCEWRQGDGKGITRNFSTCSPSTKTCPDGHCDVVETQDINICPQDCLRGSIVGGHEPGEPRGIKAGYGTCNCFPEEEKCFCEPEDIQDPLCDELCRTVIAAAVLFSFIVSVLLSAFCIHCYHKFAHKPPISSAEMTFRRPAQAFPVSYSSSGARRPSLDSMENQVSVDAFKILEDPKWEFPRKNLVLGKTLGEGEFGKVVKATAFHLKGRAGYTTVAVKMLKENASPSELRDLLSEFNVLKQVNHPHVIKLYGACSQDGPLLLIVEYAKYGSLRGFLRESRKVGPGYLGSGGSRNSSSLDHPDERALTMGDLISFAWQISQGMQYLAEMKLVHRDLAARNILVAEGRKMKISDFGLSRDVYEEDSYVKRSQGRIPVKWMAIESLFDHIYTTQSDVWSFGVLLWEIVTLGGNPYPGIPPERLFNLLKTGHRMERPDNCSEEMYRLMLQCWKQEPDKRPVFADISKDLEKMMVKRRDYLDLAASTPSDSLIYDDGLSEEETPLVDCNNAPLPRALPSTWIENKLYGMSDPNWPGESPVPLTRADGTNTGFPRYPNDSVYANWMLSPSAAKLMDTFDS
UniProt P33176, whole entry, looked up: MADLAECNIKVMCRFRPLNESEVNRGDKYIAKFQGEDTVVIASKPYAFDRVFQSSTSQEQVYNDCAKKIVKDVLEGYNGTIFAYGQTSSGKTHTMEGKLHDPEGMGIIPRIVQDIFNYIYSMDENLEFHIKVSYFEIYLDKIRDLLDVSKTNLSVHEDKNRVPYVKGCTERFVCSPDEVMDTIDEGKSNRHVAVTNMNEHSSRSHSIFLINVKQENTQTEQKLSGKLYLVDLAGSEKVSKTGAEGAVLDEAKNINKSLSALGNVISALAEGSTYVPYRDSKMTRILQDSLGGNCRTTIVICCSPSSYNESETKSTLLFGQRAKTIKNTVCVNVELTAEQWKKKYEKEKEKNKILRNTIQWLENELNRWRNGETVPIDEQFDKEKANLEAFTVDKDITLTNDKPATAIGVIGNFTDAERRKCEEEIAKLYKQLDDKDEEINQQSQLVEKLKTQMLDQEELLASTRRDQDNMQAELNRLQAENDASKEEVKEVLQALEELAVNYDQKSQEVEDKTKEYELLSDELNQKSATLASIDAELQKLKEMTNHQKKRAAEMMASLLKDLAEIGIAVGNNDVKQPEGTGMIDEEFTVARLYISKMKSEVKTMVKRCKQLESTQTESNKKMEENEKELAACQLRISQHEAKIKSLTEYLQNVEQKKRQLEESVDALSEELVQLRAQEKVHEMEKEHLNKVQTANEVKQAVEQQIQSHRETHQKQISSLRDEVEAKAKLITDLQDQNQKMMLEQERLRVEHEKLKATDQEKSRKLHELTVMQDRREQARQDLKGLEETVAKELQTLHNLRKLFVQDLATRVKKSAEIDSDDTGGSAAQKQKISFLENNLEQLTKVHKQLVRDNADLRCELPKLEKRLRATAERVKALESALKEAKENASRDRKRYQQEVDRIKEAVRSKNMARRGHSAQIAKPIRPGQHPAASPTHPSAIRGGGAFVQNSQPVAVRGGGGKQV

Compound	tested on	test	test system	conditions	endpoint	result
CCCCCCCCCCCCNC(=S)NCCCC[C@H](NC(=O)c1ccccc1)C(=O)N[C@H](C)C(=O)N[C@@H](CCCNC(=N)N)C(N)=O	SIRT2 (Homo sapiens, UniProt Q8IXJ6)	demyristoylation, inhibitor	–	NAD+ 500 µM, together with: myristoylated peptide 50 µM	IC50	7.5 ± 0.9 µM
NS(=O)(=O)c1ccc(Cc2c(-c3ccc(F)c(C#CC4CCCC4)c3)nn(-c3nc(C(=O)O)cs3)c2CC2CC2)cc1F	LDHA (Homo sapiens, UniProt P00338)	enzyme activity, inhibitor	–	–	IC50	0.06 ± 0.13 µM
COC(=O)[C@@H]1C(c2nc3cc(Cl)ccc3o2)=Cc2cc3c(cc2[C@H]1c1cc(OC)c(OC)c(OC)c1)OCO3	Leishmania infantum	iRFP fluorescence	mouse splenocytes infected, amastigote, iRFP, ex vivo splenic explant	48 h	EC50	12.1 ± 0.4 µM
CCOc1ccccc1Nc1nnc(SCC(=O)Nc2cc(F)ccc2F)s1	co-cultured human PBMCs	–	MucilAir airway epithelium	5 µM, 48 h, together with: anti-CD3/CD28	IFN-γ secretion	790 ± 25 pg/mL
NC(=O)c1cn(-c2ccc(F)cc2)c2ccc(CN3CCCCC3)cc2c1=O	Grm2 (Rattus norvegicus, UniProt P31421)	calcium mobilization, negative allosteric modulator	–	–	IC50	> 10 µM
CC(=O)Nc1cc(Nc2cc(NC3CC3)n3ncc(C#N)c3n2)ccc1N1CCOCC1	CSNK2A1 (Homo sapiens, UniProt P68400)	target engagement, NanoBRET	HEK293	–	IC50	0.067 µM
[N-]=[N+]=NCc1cc(N=[N+]=[N-])cc(C(=O)NCCCc2cc(C(=O)[O-])c[n+]([C@@H]3O[C@H](COP(=O)(O)OP(=O)(O)OC[C@H]4O[C@@H](n5cnc6c(N)ncnc65)[C@H](OP(=O)(O)O)[C@@H]4O)[C@@H](O)[C@H]3O)c2)c1	NAADP receptor Strongylocentrotus purpuratus	desensitization of calcium release	sea urchin egg homogenate	7 min preincubation, together with: NAADP 1 µM	IC50	13 µM
Cc1cc(SCc2sc(-c3cc(Cl)cc(C(F)(F)F)c3)nc2C)ccc1OCC(=O)O	HEK293T	–	–	18 h	CC50	> 33 µM
O=C(Nc1ccc(Cl)cc1)C(NS(=O)(=O)c1cccs1)c1ccccc1Cl (stereo not shown)	Uracil nucleotide/cysteinyl leukotriene receptor, long isoform (GPR17, Homo sapiens, UniProt Q13304)	calcium mobilization, antagonist	1321-N1	–	IC50	17.9 ± 0.73 µM
COc1cc([C@@H]2c3cc4c(cc3C=C(C=O)[C@H]2C(=O)OCCCCCCBr)OCO4)cc(OC)c1OC	Leishmania infantum	iRFP fluorescence	mouse splenocytes infected, amastigote, iRFP, ex vivo splenic explant	48 h	EC50	18.1 ± 0.1 µM
CN1CC[C@H](c2c(O)cc(O)c3c(=O)cc(-c4ccc(Cl)cc4)oc23)[C@H](O)C1	Cyclin-dependent kinase 9, with cyclin T1 (CDK9, Homo sapiens, UniProt P50750)	inhibitor	–	with cyclin T1, GST-CTD substrate	IC50	0.0123 µM
Cc1ccc(SCC(=O)Nc2ccc3nc(SCC(=O)NC4CC4)sc3c2)cc1	ESR1	reporter gene, antagonist	HEC-1 transfected ERα luciferase reporter	–	IC50	20 to 50 µM
COc1cc(Nc2ncnc3cc(I)ccc23)cc(OC)c1OC	PKN3 (Homo sapiens, UniProt Q6P5Z2)	binding, split-luciferase	–	–	IC50	< 1 µM
COC(=O)[C@@]1(C)C=C(C(=O)OCc2cccc(C(=O)Nc3ccc(Nc4nccc(-c5cccnc5)n4)c(C)c3)c2)C(=O)CC1	MAPK8 (Homo sapiens, UniProt P45983)	enzyme activity	–	together with: glutathione 10 mM	IC50	0.349 ± 0.024 µM
CCN1CCN(c2ccc(Nc3ncc4c(n3)N(C)C(=O)N(c3cc(NC(=O)c5cccc(C(F)(F)F)c5)ccc3C)C4)cc2)CC1	FGFR4 (Homo sapiens, UniProt P22455)	enzyme activity, inhibitor, radiometric kinase	–	–	IC50	0.00582 µM
N#Cc1ccc2[nH]cc(/C=C/c3ccc([N+](=O)[O-])cc3F)c2c1	Amyloid-beta precursor protein, amyloid-beta peptide (APP, Homo sapiens, UniProt P05067)	Aβ42 oligomerisation, ELISA	–	–	IC50	> 20 µM
COC(=O)c1c(O)cc2c(c1C)C(=O)c1c(O)cccc1C2=O	Rhomboid protease AarA (Providencia stuartii, UniProt P46116)	inhibitor, fluorogenic peptide substrate	–	–	IC50	22.5 µM
COc1cccc(C(=O)Nc2ccc(-c3nc4ccccc4[nH]3)cc2)c1	Tyrosine-protein kinase SYK, with FCER1G (SYK, Homo sapiens, UniProt P43405)	protein binding, inhibitor, TR-FRET	–	–	IC50	> 100 µM
O=C(O)CNC(=O)c1cc(C(=O)O)cc([C@H]2CCN[C@@H]2C(=O)O)c1	Glutamate receptor ionotropic, NMDA 2A, with GluN1 (Grin2a, Rattus norvegicus, UniProt Q00959)	ion current, antagonist, two-electrode voltage clamp	Xenopus oocytes	GluN1/GluN2A, together with: glycine 100 µM and glutamate 1 µM	IC50	1.32 ± 0.05 µM
Cc1ccc(SCC(=O)Nc2ccc3nc(SCC(=O)NCC(C)C)sc3c2)c(C)c1	ESR1	reporter gene, antagonist	HEC-1 transfected ERα luciferase reporter	–	IC50	20 to 50 µM
O=C(CCC(=O)N[C@@H](CCCCNC(=S)NCCn1nn[nH]c1=O)C(=O)N[C@@H](Cc1c[nH]c2ccccc12)C(=O)NC1CCC1)NCCOCCOCCCCCCCl	SIRT5 (Homo sapiens, UniProt Q9NXA8)	deacylase activity, inhibitor, end-point inhibition	–	–	IC50	2.3 ± 0.2 µM
CN1CCN(Cc2ccc(NC(=O)c3cncc(C#Cc4c(N)ncc5ccc(F)cc45)c3)cc2C(F)(F)F)CC1	Kinesin-1 heavy chain/ Tyrosine-protein kinase receptor RET (RET/KIF5B, Homo sapiens, UniProt P07949+P33176, G810V)	cell viability, inhibitor, CellTiter-Glo	Ba/F3 KIF5B-RET G810V	–	IC50	0.0073 ± 0.00022 µM

A few entries again:
Compound	tested on	test	test system	conditions	endpoint	result
NC(=O)c1cn(-c2ccc(F)cc2)c2ccc(CN3CCCCC3)cc2c1=O	Grm2 (Rattus norvegicus, UniProt P31421)	calcium mobilization, negative allosteric modulator	–	–	IC50	> 10 µM
CCN1CCN(c2ccc(Nc3ncc4c(n3)N(C)C(=O)N(c3cc(NC(=O)c5cccc(C(F)(F)F)c5)ccc3C)C4)cc2)CC1	FGFR4 (Homo sapiens, UniProt P22455)	enzyme activity, inhibitor, radiometric kinase	–	–	IC50	0.00582 µM
